Published values from different studies.
Numbered parts are unrelated; each lists some results of a single study. “And” joins repeats or separate records; there may be more than shown.

Block 1
SMILES: CC(C)CN(C)c1nc(N)c(C(=O)N=C(N)N)nc1Cl
Observed: β-arrestin recruitment
Mode: agonist
Technique: PRESTO-Tango
Tested at: 10 µM
Reference: untreated
For HTR1D (Homo sapiens, UniProt P28221): “fold over basal” read 0.96.
For Probable G-protein coupled receptor 152 (GPR152, Homo sapiens, UniProt Q8TDT2): “fold over basal” read 0.45.
GPR37L1 (Homo sapiens, UniProt O60883) — “fold over basal”: 0.64.
The “fold over basal” was 0.62 fold (UTS2R (Homo sapiens, UniProt Q9UKP6)).
It gave 1.39 for “fold over basal” (AVPR1A (Homo sapiens, UniProt P37288)).
The “fold over basal” was 0.56 fold (Galanin receptor type 3 (Homo sapiens, UniProt O60755)).
For HTR6 (Homo sapiens, UniProt P50406): “fold over basal” read 0.63.
GLP1R (Homo sapiens, UniProt P43220) — “fold over basal”: 0.4 fold.
The “fold over basal” was 0.79 (C-C chemokine receptor type 2, isoform B (CCR2, Homo sapiens, UniProt P41597)).
CHRM5 (Homo sapiens, UniProt P08912) — “fold over basal”: 0.97.
The “fold over basal” was 0.81 fold (Trace amine-associated receptor 6 (TAAR6, Homo sapiens, UniProt Q96RI8)).
It gave 0.63 for “fold over basal” (Leukotriene B4 receptor 2, isoform b (LTB4R2, Homo sapiens, UniProt Q9NPC1)).
CX3CR1 (Homo sapiens, UniProt P49238) — “fold over basal”: 0.82.
ADRB2 (Homo sapiens, UniProt P07550) — “fold over basal”: 0.87.
For CXCR4 (Homo sapiens, UniProt P61073): “fold over basal” read 0.55.

Block 2
SMILES: O=c1cc(N2CCOCC2)oc2c1ccc1ccccc12
Observed: enzyme activity
Mode: inhibitor
Tested at: 0.5 µM
Reference: control
For DYRK3 (Homo sapiens, UniProt O43781): remaining activity read 96%.
It gave 96.3% for remaining activity (EPHB4 (Homo sapiens, UniProt P54760)).
For WNK3 (Homo sapiens, UniProt Q9BYP7): remaining activity read 97.5%.
CAMK2B (Homo sapiens, UniProt Q13554) — remaining activity: 98.1%.
The remaining activity was 99% (STK16 (Homo sapiens, UniProt O75716)).
The remaining activity was 95.1% (Cyclin-dependent kinase 6, with cyclin D3 (CDK6, Homo sapiens, UniProt Q00534)).
For EPHB1 (Homo sapiens, UniProt P54762): remaining activity read 104%.
It gave 104% for remaining activity (ABL1 (Homo sapiens, UniProt P00519)).
It gave 97.1% for remaining activity (SRMS (Homo sapiens, UniProt Q9H3Y6)).
It gave 109% for remaining activity (PDPK1 (Homo sapiens, UniProt O15530)).
The remaining activity was 101% (HIPK4 (Homo sapiens, UniProt Q8NE63)).
It gave 94.4% for remaining activity (EPHA4 (Homo sapiens, UniProt P54764)).
For MAPKAPK3 (Homo sapiens, UniProt Q16644): remaining activity read 105%.
Cyclin-dependent kinase 4, with cyclin D3 (CDK4, Homo sapiens, UniProt P11802) — remaining activity: 96.8%.
The remaining activity was 98.1% (AXL (Homo sapiens, UniProt P30530)).
It gave 104% for remaining activity (BLK (Homo sapiens, UniProt P51451)).
The remaining activity was 103% (RPS6KA5 (Homo sapiens, UniProt O75582)).
HIPK2 (Homo sapiens, UniProt Q9H2X6) — remaining activity: 105%.
It gave 85.5% for remaining activity (Cyclin-dependent kinase 1, with cyclin B (CDK1, Homo sapiens, UniProt P06493)).
It gave 100% for remaining activity (TSSK2 (Homo sapiens, UniProt Q96PF2)).
STK17A (Homo sapiens, UniProt Q9UEE5) — remaining activity: 94.6%.
The remaining activity was 89.3% (MAP4K4 (Homo sapiens, UniProt O95819)).
It gave 98.2% for remaining activity (PHKG1 (Homo sapiens, UniProt Q16816)).
The remaining activity was 95.4% (RPS6KA6 (Homo sapiens, UniProt Q9UK32)).

Block 3
SMILES: C[C@@H]1CN(c2ccc(-c3cc(C(=O)NCCOCCOCCOCCOCCNC(=O)/C=C/c4[nH]cc(C(=O)N[C@@H](CC(N)=O)c5ccc(F)c(Cl)c5)c4-c4ccc(Cl)cc4F)ccc3F)cc2NC(=O)c2c[nH]c(=O)cc2C(F)(F)F)C[C@H](C)N1C
Mode: degrader
Time: 24 h
WDR5: WD repeat-containing protein 5 (WDR5, Homo sapiens, UniProt P61964)
WDR5/DCAF1: WDR5/DCAF1 (Homo sapiens, UniProt P61964+Q9Y4B6)
WDR5; Jess capillary immunoassay, item: WDR5 over vinculin; 4270 nM; reference: DMSO — “remaining protein level”: 52.5% and 69.5% and 49% and 78.2% and 92% and 52.1%.
The “remaining protein level” was 63.6% and 54.1% and 59.6% and 93.2% and 72.5% and 90% (WDR5; Jess capillary immunoassay, item: WDR5 over vinculin; 331 nM; reference: DMSO).
It gave 100% and 92.8% and 101% for “remaining protein level” (WDR5/DCAF1; HiBiT luminescence; 88.1 nM).
It gave 102% and 109% and 107% for “remaining protein level” (WDR5/DCAF1; HiBiT luminescence; 5.15 nM).

Block 4
Structure (SMILES): O=C(N[C@H]1CCCCC/C=C\C2C[C@@]2(C(=O)O)NC(=O)[C@@H]2C[C@@H](Oc3ccncc3)CN2C1=O)OC1CCCC1 (stereo partly drawn)
Tested at: 1 µM
The remaining binding was 81% (MET (Homo sapiens, UniProt P08581, Y1235D); cell-free assay, competition with immobilised ligand).
CSNK2A2 (Homo sapiens, UniProt P19784); cell-free assay, competition with immobilised ligand — remaining binding: 100%.
For MAP3K9 (Homo sapiens, UniProt P80192); binding, competition with immobilised ligand: remaining binding read 97%.
PIK3CA (Homo sapiens, UniProt P42336, I800L); binding, competition with immobilised ligand — remaining binding: 100%.
It gave 100% for remaining binding (EPHA7 (Homo sapiens, UniProt Q15375); cell-free assay, competition with immobilised ligand).
For ANKK1 (Homo sapiens, UniProt Q8NFD2); binding, competition with immobilised ligand: remaining binding read 100%.
The remaining binding was 93% (PLK2 (Homo sapiens, UniProt Q9NYY3); binding, competition with immobilised ligand).
The remaining binding was 100% (PIP4K2C (Homo sapiens, UniProt Q8TBX8); binding, competition with immobilised ligand).
CHUK (Homo sapiens, UniProt O15111); cell-free assay, competition with immobilised ligand — remaining binding: 100%.
For BMPR2 (Homo sapiens, UniProt Q13873); cell-free assay, competition with immobilised ligand: remaining binding read 100%.
NUAK1 (Homo sapiens, UniProt O60285); binding, competition with immobilised ligand — remaining binding: 99%.
STK10 (Homo sapiens, UniProt O94804); binding, competition with immobilised ligand — remaining binding: 99%.
CDKL1 (Homo sapiens, UniProt Q00532); binding, competition with immobilised ligand — remaining binding: 100%.
CDK19 (Homo sapiens, UniProt Q9BWU1); competition binding — remaining binding: 91%.

A few entries again (block 1):
GPR37L1 (Homo sapiens, UniProt O60883) — “fold over basal”: 0.64.
The “fold over basal” was 0.62 fold (UTS2R (Homo sapiens, UniProt Q9UKP6)).
It gave 1.39 for “fold over basal” (AVPR1A (Homo sapiens, UniProt P37288)).
The “fold over basal” was 0.56 fold (Galanin receptor type 3 (Homo sapiens, UniProt O60755)).
For HTR6 (Homo sapiens, UniProt P50406): “fold over basal” read 0.63.
GLP1R (Homo sapiens, UniProt P43220) — “fold over basal”: 0.4 fold.
The “fold over basal” was 0.79 (C-C chemokine receptor type 2, isoform B (CCR2, Homo sapiens, UniProt P41597)).
